# Measured values of several laboratories.
# Every numbered part comes from another study and shows a few of its results, in no order. Several values in a cell are separate wells, animals, samples, runs or records.

# Block 1
# Compound: CCCN1C(=O)C(O)(C(=O)O)Oc2cc(F)ccc21 (stereo not shown)
organism,test,system,conditions,how to read,inhibition
Arabidopsis thaliana,hypocotyl length,"Col-0, seedlings",3.125 µg/mL,,5.34%
Arabidopsis thaliana,hypocotyl length,"Col-0, seedlings",25 µg/mL,,28.9%
Arabidopsis thaliana,root length,"Col-0, seedlings",100 µg/mL,,89.2%
Arabidopsis thaliana,root length,"Col-0, seedlings",12.5 µg/mL,baseline: water control,30.8%
Eclipta prostrata,fresh weight,,"150 g ai/ha, post-emergence treatment",,75.6% and 73.5% and 73.2%
Arabidopsis thaliana,root length,"Col-0, seedlings",12.5 µg/mL,,30.8%
Abutilon theophrasti,fresh weight,,"150 g ai/ha, pre-emergence treatment",,86.2% and 85.4% and 77.7%
Arabidopsis thaliana,root length,"Col-0, seedlings",6.25 µg/mL,,22.5%
Arabidopsis thaliana,hypocotyl length,Col-0,"50.0 µg/mL, 7 days, seed germination, dark",,47.7%
Arabidopsis thaliana,hypocotyl length,Col-0,"3.125 µg/mL, 7 days, seed germination, dark",,5.3%
Arabidopsis thaliana,root length,"Col-0, seedlings",100 µg/mL,baseline: water control,89.2%
Setaria viridis,fresh weight,,"150 g ai/ha, pre-emergence treatment",,71.5% and 81.1% and 74.8%
Arabidopsis thaliana,hypocotyl length,"Col-0, seedlings",6.25 µg/mL,,10.9%
Echinochloa crus-galli,fresh weight,,"150 g ai/ha, post-emergence treatment",,40.5% and 44% and 43.3%
Alopecurus japonicus,fresh weight,,"150 g ai/ha, pre-emergence treatment",,37.1% and 38.7% and 35.2%
Arabidopsis thaliana,root length,"Col-0, seedlings",3.125 µg/mL,baseline: water control,9.42%
Arabidopsis thaliana,root length,Col-0,"50.0 µg/mL, 7 days, seed germination, dark",,65.5%
Arabidopsis thaliana,hypocotyl length,Col-0,"6.25 µg/mL, 7 days, seed germination, dark",,10.9%
Arabidopsis thaliana,root length,Col-0,"6.25 µg/mL, 7 days, seed germination, dark",,22.5%
Arabidopsis thaliana,hypocotyl length,"Col-0, seedlings",50 µg/mL,,47.7%
Arabidopsis thaliana,root length,Col-0,"100 µg/mL, 7 days, seed germination, dark",,89.2%
Alopecurus aequalis,fresh weight,,"150 g ai/ha, pre-emergence treatment",,87.2% and 85.4% and 88.4%

# Block 2
# Compound: CCN1/C(=C/C=C2\CCCC(/C=C/C3=[N+](CC)c4ccccc4C3(C)C)=C2NCCCCCCCCN2CCC(Nc3nc4ccccc4n3Cc3ccc(F)cc3)CC2)C(C)(C)c2ccccc21
# Cell line: U-87 MG
# Concentration: concentration not given
# Baseline: DMSO
test,log2 fold change
measured: PCDHB16 mRNA,-1.22
measured: CLDN15 mRNA,1.29
measured: RAB9B mRNA,-1.03
measured: TRAPPC1 mRNA,-1
measured: SELENOI mRNA,0.903
measured: LTO1 mRNA,1.13
measured: ZNF503 mRNA,-1.11
measured: KIAA1522 mRNA,-0.934
measured: MYBL1 mRNA,-1.91
measured: GAS2L1 mRNA,-1.01
measured: BEAN1 mRNA,-2.1
measured: CCL20 mRNA,4.81
measured: IGSF10 mRNA,-2.51
measured: RHOBTB1 mRNA,-1.35
measured: CCR1 mRNA,-4.06
measured: HSPB3 mRNA,-2.15

# Block 3
# Cell line: Gaucher fibroblasts L444P/L444P
# Method: 4-MUG hydrolysis, cell lysate
# Concentration: 10 µM
# Baseline: DMSO
SMILES,GCase activity
Ic1ccc(Nc2nc(NCCN3CCOCC3)nc(NC3CCCCC3)n2)cc1,99% and 91.1% and 91% and 94.8%
Ic1ccc(Nc2nc(NCCN3CCOCC3)nc(N3CC4CCC(C3)O4)n2)cc1,119% and 118% and 129% and 108% and 124%
Ic1ccc(Nc2nc(NCCN3CCCCC3)nc(N3CCOCC3)n2)cc1,103% and 92.2% and 95.2% and 86.9% and 105% and 97.6%
Ic1ccc(Nc2nc(NCCN3CCOCC3)nc(N3CCSCC3)n2)cc1,90.9% and 96.6% and 93.5% and 89% and 87.5%
Ic1cccc(Nc2nc(NCCN3CCOCC3)nc(N3CCOCC3)n2)c1,132% and 142% and 143% and 133% and 122%
c1ccc(Nc2nc(NCCN3CCOCC3)nc(N3CCOCC3)n2)cc1,119% and 125% and 112% and 107% and 105%
Ic1ccc(Nc2nc(NCCN3CCOCC3)nc(N3CC4CC3CO4)n2)cc1 (stereo not shown),105% and 107% and 110% and 103% and 113% and 112%
CCN(CC)c1nc(NCCN2CCOCC2)nc(Nc2ccc(I)cc2)n1,68.7% and 62.9% and 63.5% and 75.1%

# Block 4
# Target: E3 ubiquitin-protein ligase NEDD4, HECT domain (Homo sapiens, UniProt P46934)
# Read-out: enzyme activity
# Action: inhibitor
# Method: Ub-TR-FRET
# Medium: HECT domain
# Concentration: 0.04572 µM
# Direction: higher = more chain formation
# Target sequence (P46934 938-1319, limits assumed): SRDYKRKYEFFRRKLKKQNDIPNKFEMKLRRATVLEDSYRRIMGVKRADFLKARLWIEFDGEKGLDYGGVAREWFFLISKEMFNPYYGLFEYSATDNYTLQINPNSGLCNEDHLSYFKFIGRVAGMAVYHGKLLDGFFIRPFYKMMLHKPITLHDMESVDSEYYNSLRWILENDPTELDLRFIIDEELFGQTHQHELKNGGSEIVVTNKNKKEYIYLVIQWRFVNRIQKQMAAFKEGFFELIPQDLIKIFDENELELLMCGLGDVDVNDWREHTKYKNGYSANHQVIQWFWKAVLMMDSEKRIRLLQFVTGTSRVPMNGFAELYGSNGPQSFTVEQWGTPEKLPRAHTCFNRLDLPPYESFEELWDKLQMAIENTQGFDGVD
Compound,ubiquitin chain formation AUC
N#C/C=C/CNCCCCN1c2ccccc2CCc2ccc(Cl)cc21.O=C(O)/C=C\C(=O)O,86400 a.u. and 81900 a.u. and 96200 a.u. and 94800 a.u. and 87500 a.u. and 68800 a.u.
CCOC(=O)/C=C/CN(CC)CCCCN1c2ccccc2CCc2ccc(Cl)cc21.O=C(O)/C=C\C(=O)O,93200 a.u. and 93700 a.u. and 97100 a.u. and 101000 a.u. and 87900 a.u. and 96000 a.u.
CCOC(=O)/C=C/CNCCCCN1c2ccccc2C(=O)N(C)c2ccc(Cl)cc21.O=C(O)/C=C\C(=O)O,95300 a.u. and 98100 a.u. and 98300 a.u.
CNCCCN1c2ccccc2CCc2ccc(Cl)cc21,147000 a.u.
CCOC(=O)/C=C/CNCCCCN1c2cc(Cl)ccc2C(=O)N(C)c2ccccc21.O=C(O)/C=C\C(=O)O,90300 a.u. and 89800 a.u. and 91200 a.u.
CCOC(=O)/C=C/CN(CCCCN1c2ccccc2CCc2ccc(Cl)cc21)C(C)C.O=C(O)/C=C\C(=O)O,84900 a.u. and 84600 a.u. and 84200 a.u. and 81100 a.u. and 85400 a.u. and 81700 a.u.
CNC(=O)/C=C/CNCCCN1c2ccccc2CCc2ccc(Cl)cc21.Cl,131000 a.u. and 132000 a.u. and 128000 a.u.
CN(C)C(=O)/C=C/CNCCCN1c2ccccc2CCc2ccc(Cl)cc21.Cl,141000 a.u. and 140000 a.u.
CCOC(=O)/C=C/CNCCCN1c2ccccc2CCc2ccc(Cl)cc21,44900 a.u. and 45000 a.u. and 46500 a.u.
CNC(=O)/C=C/CNCCCCN1c2ccccc2CCc2ccc(Cl)cc21.Cl,68200 a.u. and 70900 a.u. and 87600 a.u. and 89600 a.u. and 85900 a.u. and 70500 a.u.
CONC(=O)/C=C/CNCCCCN1c2ccccc2CCc2ccc(Cl)cc21.O=C(O)/C=C\C(=O)O,57200 a.u. and 38900 a.u. and 62900 a.u. and 37000 a.u. and 39700 a.u.
CCOC(=O)/C=C/CNCCCCN1c2cc(Cl)ccc2COc2ccccc21.O=C(O)/C=C\C(=O)O,91100 a.u. and 85900 a.u. and 91500 a.u.

# For quick reference, copied from above (block 2):
test,log2 fold change
measured: CLDN15 mRNA,1.29
measured: RAB9B mRNA,-1.03
measured: TRAPPC1 mRNA,-1
measured: SELENOI mRNA,0.903
measured: LTO1 mRNA,1.13
measured: ZNF503 mRNA,-1.11
measured: KIAA1522 mRNA,-0.934
